Measurements gathered from unrelated publications.
Each numbered part is a random draw from the data of one study; scales do not carry over between parts.
Chain of UniProt Q9H4A3 (whole entry, looked up): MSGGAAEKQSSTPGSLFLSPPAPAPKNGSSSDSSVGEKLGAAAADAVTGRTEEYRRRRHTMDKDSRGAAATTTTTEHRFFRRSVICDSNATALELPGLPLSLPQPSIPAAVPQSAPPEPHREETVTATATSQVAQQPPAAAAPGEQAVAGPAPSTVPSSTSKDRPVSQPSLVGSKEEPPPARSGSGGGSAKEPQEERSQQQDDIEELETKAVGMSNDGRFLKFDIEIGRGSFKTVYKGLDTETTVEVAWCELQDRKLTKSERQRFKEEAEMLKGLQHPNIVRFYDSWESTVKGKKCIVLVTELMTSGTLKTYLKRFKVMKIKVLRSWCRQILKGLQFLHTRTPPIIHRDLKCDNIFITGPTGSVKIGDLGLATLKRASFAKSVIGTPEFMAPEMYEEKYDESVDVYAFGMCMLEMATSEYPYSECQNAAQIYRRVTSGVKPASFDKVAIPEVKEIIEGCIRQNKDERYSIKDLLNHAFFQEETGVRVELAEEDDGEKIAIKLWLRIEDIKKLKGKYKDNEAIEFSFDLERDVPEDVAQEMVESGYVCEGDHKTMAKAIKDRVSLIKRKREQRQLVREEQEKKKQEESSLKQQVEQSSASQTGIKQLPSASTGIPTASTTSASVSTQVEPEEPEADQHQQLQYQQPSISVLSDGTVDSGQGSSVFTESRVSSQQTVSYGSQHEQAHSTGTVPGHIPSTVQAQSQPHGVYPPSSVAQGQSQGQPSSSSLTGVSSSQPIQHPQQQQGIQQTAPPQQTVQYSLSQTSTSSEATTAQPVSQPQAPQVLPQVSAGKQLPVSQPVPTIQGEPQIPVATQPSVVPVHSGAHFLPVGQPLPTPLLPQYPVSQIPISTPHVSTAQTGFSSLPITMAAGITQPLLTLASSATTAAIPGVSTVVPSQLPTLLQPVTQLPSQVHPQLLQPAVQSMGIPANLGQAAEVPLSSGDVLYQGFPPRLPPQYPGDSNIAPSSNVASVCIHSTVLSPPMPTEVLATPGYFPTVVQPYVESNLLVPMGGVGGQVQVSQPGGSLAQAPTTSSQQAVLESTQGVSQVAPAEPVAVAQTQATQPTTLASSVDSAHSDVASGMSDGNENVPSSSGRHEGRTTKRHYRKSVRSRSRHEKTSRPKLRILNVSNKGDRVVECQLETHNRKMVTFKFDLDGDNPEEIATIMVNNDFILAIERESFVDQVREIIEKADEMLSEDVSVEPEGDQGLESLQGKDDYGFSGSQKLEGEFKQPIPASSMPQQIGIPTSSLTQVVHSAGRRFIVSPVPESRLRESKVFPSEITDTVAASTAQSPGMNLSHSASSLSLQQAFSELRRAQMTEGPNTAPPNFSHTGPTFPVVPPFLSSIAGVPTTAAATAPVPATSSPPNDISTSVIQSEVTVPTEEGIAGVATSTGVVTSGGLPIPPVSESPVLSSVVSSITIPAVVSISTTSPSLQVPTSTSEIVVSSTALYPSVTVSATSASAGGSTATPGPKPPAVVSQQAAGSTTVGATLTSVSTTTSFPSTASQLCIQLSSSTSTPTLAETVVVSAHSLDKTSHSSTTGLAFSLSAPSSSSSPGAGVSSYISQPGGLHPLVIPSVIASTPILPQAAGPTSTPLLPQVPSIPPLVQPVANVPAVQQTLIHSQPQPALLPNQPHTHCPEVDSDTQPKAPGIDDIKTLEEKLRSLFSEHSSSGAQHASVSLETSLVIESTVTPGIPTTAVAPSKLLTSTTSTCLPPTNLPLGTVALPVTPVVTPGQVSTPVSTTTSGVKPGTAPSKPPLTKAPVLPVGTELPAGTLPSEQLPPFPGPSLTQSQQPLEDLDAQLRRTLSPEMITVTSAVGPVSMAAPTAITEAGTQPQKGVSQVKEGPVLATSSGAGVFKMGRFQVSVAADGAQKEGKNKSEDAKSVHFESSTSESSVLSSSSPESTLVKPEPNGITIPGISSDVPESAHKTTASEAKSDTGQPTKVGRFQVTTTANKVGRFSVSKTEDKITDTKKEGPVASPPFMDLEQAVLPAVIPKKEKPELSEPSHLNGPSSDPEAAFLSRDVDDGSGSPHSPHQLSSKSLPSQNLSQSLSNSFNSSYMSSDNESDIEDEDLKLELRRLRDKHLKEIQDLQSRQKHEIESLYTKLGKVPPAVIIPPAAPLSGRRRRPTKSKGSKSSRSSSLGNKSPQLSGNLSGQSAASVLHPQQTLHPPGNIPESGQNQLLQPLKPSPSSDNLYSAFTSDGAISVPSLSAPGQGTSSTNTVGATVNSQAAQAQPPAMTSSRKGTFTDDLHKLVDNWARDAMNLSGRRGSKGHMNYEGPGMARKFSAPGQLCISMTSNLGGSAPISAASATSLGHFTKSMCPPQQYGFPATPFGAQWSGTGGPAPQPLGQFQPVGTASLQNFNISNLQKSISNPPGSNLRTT
Chain of UniProt P10275 (whole entry, looked up): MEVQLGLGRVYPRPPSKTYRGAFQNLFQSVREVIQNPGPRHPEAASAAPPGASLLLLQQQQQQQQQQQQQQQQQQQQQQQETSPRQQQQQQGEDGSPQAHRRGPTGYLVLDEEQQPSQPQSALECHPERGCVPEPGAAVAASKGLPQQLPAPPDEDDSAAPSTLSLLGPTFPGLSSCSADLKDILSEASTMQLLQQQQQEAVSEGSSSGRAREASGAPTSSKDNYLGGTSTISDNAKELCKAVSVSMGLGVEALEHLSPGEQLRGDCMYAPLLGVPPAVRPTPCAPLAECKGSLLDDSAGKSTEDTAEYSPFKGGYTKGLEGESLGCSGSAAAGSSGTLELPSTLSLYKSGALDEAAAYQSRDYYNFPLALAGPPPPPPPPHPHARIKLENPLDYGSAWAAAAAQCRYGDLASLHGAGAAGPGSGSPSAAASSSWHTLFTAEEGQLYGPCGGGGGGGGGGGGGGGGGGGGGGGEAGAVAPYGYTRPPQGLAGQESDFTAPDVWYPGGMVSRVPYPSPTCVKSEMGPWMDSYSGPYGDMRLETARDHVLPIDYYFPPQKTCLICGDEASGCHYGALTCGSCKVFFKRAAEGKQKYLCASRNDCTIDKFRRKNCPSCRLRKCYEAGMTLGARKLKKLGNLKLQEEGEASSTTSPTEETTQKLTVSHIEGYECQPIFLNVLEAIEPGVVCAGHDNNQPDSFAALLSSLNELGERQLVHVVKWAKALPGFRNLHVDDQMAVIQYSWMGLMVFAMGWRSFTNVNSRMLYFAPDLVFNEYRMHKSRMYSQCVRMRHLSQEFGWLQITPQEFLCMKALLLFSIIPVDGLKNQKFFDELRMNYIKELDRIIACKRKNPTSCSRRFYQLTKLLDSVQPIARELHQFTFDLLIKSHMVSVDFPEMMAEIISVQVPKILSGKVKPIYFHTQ
Chain of UniProt P46734 (whole entry, looked up): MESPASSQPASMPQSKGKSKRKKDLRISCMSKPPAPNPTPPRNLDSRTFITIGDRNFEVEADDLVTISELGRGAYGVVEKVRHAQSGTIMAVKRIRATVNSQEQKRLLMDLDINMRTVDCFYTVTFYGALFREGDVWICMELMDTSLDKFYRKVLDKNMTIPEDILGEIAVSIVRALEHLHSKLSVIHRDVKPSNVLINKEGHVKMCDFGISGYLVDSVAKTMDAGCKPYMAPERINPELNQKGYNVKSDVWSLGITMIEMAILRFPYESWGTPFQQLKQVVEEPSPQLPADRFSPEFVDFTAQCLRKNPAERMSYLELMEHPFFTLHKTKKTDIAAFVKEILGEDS

Series 1
SMILES: Cn1cncc1[C@](O)(COc1ccc(C#N)cc1-c1ccc(OC(F)(F)F)cc1)c1ccc(C#N)cc1
Observed: cell-free assay
Method: competition with immobilised ligand
Concentration: 1 µM
Quantity: remaining binding
GRK1 (Homo sapiens, UniProt Q15835): 95%
MAPK4 (Homo sapiens, UniProt P31152): 100%
DDR1 (Homo sapiens, UniProt Q08345): 97%
WNK1 (Homo sapiens, UniProt Q9H4A3): 100%

Series 2
Structure (SMILES): CNC(=O)c1ccc(-c2cnn3ccc(C(=O)N(C)c4ccc(Cl)c(C(=O)OC)c4)cc23)cc1
Quantity: IC50
MAP2K3 (Homo sapiens, UniProt P46734); enzyme activity, inhibitor: > 30 µM
Androgen receptor (AR, Homo sapiens, UniProt P10275); cell-free assay: > 30 µM
ADRA2A (Homo sapiens, UniProt P08913); cell-free assay: > 30 µM
rat benzodiazepine receptor; binding: > 30 µM
DMPK (Homo sapiens, UniProt Q09013); enzyme activity, inhibitor: > 30 µM
JAK1 (Homo sapiens, UniProt P23458); enzyme activity, inhibitor: > 30 µM
CHRM2 (Homo sapiens, UniProt P08172); cell-free assay: > 30 µM
SLC6A4 (Homo sapiens, UniProt P31645); cell-free assay: 29.8 µM
SLC6A2 (Homo sapiens, UniProt P23975); cell-free assay: > 30 µM

Series 3
Target: Calcium/calmodulin-dependent protein kinase type II subunit alpha (CAMK2A, Homo sapiens, UniProt Q9UQM7)
Chain of UniProt Q9UQM7 (whole entry, looked up): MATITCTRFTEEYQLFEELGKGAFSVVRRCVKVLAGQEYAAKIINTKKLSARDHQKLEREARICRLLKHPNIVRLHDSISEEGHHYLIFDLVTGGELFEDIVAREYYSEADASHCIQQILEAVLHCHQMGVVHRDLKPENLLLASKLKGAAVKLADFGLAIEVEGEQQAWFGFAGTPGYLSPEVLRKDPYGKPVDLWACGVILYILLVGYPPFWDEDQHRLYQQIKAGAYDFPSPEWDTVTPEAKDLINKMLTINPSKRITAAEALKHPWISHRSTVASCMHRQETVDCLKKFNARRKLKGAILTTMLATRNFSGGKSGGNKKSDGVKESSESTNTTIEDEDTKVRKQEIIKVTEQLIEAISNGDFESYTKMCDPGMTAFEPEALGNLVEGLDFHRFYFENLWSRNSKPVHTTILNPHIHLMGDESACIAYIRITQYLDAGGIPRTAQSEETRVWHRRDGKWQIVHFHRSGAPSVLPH
Observed: enzyme activity
Mode: inhibitor
Concentration: 10 µM
Quantity: inhibition
O=C(O)[C@@H]1CCN1: -5%
C[C@]12CCC(=O)C=C1C=C[C@@H]1[C@@H]2CC[C@@]2(C)[C@H]1CC[C@@]2(O)CCC(=O)O: -16%
C[C@@H]1CCC=C2C(=O)C[C@H]3OOC(C)(C)[C@H]3[C@]21C: -38%
O=C(O)c1cccc2nc3ccccc3nc12: 6%

Series 4
Target: CRBN/Zinc finger protein Helios (Homo sapiens, UniProt Q96SW2+Q9UKS7)
Chain of UniProt Q9UKS7 (whole entry, looked up): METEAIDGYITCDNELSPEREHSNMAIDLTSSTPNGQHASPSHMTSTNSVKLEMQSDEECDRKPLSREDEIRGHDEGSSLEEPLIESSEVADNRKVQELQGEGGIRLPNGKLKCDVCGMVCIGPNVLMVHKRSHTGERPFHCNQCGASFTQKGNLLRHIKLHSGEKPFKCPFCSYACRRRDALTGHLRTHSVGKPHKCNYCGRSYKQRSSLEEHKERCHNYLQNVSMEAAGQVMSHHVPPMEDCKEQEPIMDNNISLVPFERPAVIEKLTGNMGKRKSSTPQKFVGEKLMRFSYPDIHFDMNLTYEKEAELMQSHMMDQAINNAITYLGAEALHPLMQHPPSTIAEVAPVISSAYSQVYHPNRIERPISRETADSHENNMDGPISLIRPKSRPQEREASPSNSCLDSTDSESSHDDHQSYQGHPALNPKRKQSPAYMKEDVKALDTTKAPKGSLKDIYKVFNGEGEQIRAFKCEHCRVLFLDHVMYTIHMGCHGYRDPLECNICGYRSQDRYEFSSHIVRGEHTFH
Chain of UniProt Q96SW2 (whole entry, looked up): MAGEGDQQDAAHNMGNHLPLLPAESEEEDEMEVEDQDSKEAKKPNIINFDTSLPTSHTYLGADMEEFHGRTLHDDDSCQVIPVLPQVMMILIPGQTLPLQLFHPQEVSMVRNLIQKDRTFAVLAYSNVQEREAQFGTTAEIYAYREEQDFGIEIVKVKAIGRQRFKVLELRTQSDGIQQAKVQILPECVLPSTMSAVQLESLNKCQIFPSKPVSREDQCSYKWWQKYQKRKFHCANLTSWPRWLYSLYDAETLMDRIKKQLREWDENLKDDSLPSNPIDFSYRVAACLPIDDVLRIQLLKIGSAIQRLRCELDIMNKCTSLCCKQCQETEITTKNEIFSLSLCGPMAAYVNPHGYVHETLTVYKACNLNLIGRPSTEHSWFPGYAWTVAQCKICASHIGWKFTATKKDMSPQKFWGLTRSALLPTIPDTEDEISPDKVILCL
Mode: degrader
Method: HiBiT
Cells: HEK293
Concentration: 1.524 nM
Quantity: protein remaining
O=C1CCC(N2Cc3c(ccc4c3OCC43CCN(Cc4ccccc4)CC3(F)F)C2=O)C(=O)N1 (centres unmarked): 94.3%
O=C1CCC(N2Cc3c(ccc4c3OCC43CCN(Cc4ccccn4)CC3)C2=O)C(=O)N1 (centres unmarked): 93%
O=C1CCC(N2Cc3c(ccc4c3OCC43CCN(Cc4ccccc4)C3)C2=O)C(=O)N1 (centres unmarked): 91.6%
O=C1CCC(N2Cc3c(ccc4c3OCC43CCN(Cc4ccsc4)CC3)C2=O)C(=O)N1 (centres unmarked): 82.1%
O=C1CCC(N2Cc3c(ccc4c3OCC43CCN(CC4CCCCC4)CC3)C2=O)C(=O)N1 (centres unmarked): 96.4%
O=C1CCC(N2Cc3c(ccc4c3OCC43CCCN(Cc4ccccc4)CC3)C2=O)C(=O)N1 (centres unmarked): 94.8%

A few entries again (series 3):
C[C@@H]1CCC=C2C(=O)C[C@H]3OOC(C)(C)[C@H]3[C@]21C: -38%
